# Results of several laboratories.
# Parts stem from different laboratories: compare values within a part only. Substitutions count along the parent as printed.
# Chain of UniProt O15294 (whole entry, looked up): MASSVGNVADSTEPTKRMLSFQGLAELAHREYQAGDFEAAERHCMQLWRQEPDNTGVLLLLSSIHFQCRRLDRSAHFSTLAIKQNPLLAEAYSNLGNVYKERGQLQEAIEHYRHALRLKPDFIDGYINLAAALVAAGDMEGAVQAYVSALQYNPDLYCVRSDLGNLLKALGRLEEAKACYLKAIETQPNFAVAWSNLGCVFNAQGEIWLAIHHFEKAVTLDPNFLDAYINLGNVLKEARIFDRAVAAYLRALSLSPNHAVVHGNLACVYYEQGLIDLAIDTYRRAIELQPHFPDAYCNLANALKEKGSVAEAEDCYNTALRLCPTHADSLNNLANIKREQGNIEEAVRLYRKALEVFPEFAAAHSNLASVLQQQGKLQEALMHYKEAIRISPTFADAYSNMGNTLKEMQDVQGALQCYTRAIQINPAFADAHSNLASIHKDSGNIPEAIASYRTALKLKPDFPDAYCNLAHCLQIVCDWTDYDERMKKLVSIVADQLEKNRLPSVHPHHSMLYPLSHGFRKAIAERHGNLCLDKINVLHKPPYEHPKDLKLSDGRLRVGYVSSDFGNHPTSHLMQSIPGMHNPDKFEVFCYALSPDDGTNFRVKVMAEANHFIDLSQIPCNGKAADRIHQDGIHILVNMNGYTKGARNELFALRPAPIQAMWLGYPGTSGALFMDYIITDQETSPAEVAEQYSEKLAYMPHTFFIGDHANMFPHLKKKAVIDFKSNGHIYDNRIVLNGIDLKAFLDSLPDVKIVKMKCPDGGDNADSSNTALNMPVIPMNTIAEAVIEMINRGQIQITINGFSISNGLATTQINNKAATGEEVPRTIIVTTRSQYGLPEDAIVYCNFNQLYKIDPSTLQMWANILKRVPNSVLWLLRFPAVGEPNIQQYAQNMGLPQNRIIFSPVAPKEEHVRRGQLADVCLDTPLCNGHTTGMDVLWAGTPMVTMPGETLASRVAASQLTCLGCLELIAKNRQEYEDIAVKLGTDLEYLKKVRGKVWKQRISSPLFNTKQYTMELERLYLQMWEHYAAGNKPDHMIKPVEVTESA

# Study 1
# Target: Interferon regulatory factor 7, full length, phosphomimetic (IRF7, Homo sapiens, UniProt Q92985, residues 1-503, S101K/S471D/S472D/S475D/S476D/S477D/S483D/S484D/S487D)
# Method: protein-binding microarray
# Form: double-stranded DNA, one strand shown
# Sample: in vitro
# Concentration: 250 nM
# Setting: 60-bp whole probe
# Together with: salmon DNA 0.4 mg/ml
# Baseline: random background probes
# Reading: higher = stronger binding
# Shared flanks, not repeated: GCCTAGCAC … GTCTTGATTCGCTTGACGCTGCTG
# Construct (chain): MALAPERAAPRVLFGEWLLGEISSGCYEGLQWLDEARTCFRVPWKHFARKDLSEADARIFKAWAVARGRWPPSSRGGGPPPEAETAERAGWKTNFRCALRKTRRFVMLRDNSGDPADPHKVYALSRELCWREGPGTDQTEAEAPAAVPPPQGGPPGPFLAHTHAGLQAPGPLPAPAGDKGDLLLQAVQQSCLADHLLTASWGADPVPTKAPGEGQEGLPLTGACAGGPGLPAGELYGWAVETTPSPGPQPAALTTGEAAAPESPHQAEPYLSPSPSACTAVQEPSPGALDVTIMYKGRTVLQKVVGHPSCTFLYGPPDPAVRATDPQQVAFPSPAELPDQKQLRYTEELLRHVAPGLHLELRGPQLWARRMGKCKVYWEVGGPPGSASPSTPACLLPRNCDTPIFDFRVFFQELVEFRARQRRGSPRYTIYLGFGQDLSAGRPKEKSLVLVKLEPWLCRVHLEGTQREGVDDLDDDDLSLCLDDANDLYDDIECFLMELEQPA
Oligonucleotide,log fluorescence
TTAGGAATGCTTTTCCTTTAGTGCTAG,0.952 z-score
TTAGGAATGCTACTGCTTTAGTGCTAG,-0.154 z-score
GCCGGTATCGGGTTTCGGGACGTGCTA,3.21 z-score
GACGTTTCCGGTTTCGGGACGTGCTAG,6.86 z-score
TTAGGGTTCGGTCTCGGTTAGTGCTAG,2.02 z-score
GACGGCATCCTTTTCCTGACGTGCTAG,-0.269 z-score
GACTATATCAGACTGGAGACGTGCTAG,0.0614 z-score
TTTGCTCTGTGCATAGGTCTGTGCTAG,-0.32 z-score

# Study 2
# Target: CRIPT, C-terminal peptide
# Method: DHFR complementation, deep sequencing
# Sample: yeast
# Setting: single substitutions, model-inferred values
# Baseline: wild type
# Reading: higher = weaker binding
# Starting sequence: ERBIN, PDZ domain 1 (human); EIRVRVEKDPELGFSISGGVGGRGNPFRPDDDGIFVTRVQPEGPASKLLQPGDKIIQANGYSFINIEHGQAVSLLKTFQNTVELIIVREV; partner TKNYKQTSV
Substitution,binding free energy change [kcal/mol]
D32A,0.0307
E1N,0.226
A45P,0.837
G33C,0.946
R3I,-0.207
F78N,0.352
A58C,0.287
N25I,0.851

# Study 3
# Target: Sal-like protein 4, full length isoform A (SALL4, Homo sapiens, UniProt Q9UJQ4, residues 1-1053)
# Chain of UniProt Q9UJQ4 (whole entry, looked up): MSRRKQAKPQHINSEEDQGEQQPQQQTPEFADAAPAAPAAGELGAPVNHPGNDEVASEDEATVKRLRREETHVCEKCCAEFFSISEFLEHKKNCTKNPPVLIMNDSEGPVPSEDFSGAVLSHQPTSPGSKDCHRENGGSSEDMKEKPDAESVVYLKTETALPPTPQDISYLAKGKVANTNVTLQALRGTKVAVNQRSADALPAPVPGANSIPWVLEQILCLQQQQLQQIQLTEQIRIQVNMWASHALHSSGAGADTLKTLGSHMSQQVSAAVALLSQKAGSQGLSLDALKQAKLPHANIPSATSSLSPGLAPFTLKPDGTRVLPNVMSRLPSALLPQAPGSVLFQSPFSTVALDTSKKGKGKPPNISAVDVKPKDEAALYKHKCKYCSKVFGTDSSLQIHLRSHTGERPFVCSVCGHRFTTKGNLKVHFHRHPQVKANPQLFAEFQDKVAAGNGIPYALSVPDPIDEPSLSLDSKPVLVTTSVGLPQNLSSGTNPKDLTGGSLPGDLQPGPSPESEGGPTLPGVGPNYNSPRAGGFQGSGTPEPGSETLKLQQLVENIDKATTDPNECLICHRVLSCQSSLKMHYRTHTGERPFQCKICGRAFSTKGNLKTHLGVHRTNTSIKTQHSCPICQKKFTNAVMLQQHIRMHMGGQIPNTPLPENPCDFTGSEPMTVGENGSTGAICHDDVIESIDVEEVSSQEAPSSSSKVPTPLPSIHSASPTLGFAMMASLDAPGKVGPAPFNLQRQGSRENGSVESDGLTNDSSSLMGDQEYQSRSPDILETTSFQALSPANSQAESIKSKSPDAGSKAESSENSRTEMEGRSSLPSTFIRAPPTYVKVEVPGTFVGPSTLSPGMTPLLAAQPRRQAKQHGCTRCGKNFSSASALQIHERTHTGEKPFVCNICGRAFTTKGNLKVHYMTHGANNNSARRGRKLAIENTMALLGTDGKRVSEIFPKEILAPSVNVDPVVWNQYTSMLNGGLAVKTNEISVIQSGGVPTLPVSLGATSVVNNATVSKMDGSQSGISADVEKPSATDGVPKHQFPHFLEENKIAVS
# Method: universal PBM
# Form: double-stranded DNA, one strand shown
# Sample: in vitro
# Concentration: 600 nM
# Setting: 8-mer, flanks averaged, mean of replicates
# Reading: higher = stronger binding
Oligonucleotide,E-score
AGTGTCCG,-0.219
GGGTGGAA,-0.0203
AACAATTC,0.152
GCATGTTA,0.119
ACGGATAG,-0.1
ACATGGGG,-0.145
GATAAAGA,0.129
CCTGTCAG,-0.116

# Single results of other studies
Molecule,target,read-out,method,form,baseline,endpoint,result
QEARSRFTPMYQITI,"UDP-N-acetylglucosamine--peptide N-acetylglucosaminyltransferase 110 kDa subunit (OGT, Homo sapiens, UniProt O15294)",binding,phage display NGS,peptide,input library,minimum log2 enrichment ratio,4.49

# A few entries again (study 2):
Substitution,binding free energy change [kcal/mol]
G33C,0.946
R3I,-0.207
F78N,0.352
A58C,0.287
